Assay results pooled from the literature.
Lines come from different studies, so protocols differ. Numbers after ± are the reported error.
Rhomboid protease AarA: Rhomboid protease AarA (Providencia stuartii, UniProt P46116)
Chain of UniProt P46116 (whole entry, looked up): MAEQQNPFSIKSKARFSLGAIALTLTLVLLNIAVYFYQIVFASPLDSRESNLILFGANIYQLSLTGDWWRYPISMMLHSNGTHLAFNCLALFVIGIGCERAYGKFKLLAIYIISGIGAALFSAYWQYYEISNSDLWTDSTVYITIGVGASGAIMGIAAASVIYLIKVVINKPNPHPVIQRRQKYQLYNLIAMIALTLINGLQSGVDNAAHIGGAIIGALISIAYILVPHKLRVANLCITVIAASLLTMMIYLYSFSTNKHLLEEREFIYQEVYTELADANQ
PPARG: Peroxisome proliferator-activated receptor gamma (PPARG, Homo sapiens, UniProt P37231)
Chain of UniProt P37231 (whole entry, looked up): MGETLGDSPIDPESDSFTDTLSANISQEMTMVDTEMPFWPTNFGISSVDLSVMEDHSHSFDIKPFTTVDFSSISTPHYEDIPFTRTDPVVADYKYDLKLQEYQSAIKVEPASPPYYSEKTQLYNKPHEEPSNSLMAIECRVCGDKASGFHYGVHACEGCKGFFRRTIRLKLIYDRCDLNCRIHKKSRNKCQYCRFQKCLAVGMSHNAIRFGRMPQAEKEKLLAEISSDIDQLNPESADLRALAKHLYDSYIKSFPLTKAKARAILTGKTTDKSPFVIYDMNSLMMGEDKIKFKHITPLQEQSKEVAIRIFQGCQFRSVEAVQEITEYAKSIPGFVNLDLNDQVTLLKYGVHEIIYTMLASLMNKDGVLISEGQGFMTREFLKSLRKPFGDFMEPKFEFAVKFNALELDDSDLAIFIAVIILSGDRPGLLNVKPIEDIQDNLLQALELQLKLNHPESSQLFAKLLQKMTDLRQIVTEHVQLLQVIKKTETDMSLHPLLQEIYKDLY
Chain of UniProt Q5U431 (whole entry, looked up): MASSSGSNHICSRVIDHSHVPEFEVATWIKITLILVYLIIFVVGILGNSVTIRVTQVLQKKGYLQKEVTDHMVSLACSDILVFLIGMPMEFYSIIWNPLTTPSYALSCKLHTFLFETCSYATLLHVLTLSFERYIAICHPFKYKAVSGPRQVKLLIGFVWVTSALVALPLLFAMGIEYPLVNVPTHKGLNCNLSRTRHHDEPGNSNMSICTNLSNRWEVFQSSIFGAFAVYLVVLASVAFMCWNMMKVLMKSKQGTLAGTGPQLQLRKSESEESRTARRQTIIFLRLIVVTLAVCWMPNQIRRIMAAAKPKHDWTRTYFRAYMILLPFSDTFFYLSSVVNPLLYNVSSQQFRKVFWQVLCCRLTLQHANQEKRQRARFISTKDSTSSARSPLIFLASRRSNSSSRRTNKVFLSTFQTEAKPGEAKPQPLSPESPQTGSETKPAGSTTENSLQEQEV
Chain of UniProt P10145 (whole entry, looked up): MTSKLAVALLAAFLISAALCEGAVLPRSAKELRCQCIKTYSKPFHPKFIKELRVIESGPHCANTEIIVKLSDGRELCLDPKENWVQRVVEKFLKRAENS
Chain of UniProt P51531 (whole entry, looked up): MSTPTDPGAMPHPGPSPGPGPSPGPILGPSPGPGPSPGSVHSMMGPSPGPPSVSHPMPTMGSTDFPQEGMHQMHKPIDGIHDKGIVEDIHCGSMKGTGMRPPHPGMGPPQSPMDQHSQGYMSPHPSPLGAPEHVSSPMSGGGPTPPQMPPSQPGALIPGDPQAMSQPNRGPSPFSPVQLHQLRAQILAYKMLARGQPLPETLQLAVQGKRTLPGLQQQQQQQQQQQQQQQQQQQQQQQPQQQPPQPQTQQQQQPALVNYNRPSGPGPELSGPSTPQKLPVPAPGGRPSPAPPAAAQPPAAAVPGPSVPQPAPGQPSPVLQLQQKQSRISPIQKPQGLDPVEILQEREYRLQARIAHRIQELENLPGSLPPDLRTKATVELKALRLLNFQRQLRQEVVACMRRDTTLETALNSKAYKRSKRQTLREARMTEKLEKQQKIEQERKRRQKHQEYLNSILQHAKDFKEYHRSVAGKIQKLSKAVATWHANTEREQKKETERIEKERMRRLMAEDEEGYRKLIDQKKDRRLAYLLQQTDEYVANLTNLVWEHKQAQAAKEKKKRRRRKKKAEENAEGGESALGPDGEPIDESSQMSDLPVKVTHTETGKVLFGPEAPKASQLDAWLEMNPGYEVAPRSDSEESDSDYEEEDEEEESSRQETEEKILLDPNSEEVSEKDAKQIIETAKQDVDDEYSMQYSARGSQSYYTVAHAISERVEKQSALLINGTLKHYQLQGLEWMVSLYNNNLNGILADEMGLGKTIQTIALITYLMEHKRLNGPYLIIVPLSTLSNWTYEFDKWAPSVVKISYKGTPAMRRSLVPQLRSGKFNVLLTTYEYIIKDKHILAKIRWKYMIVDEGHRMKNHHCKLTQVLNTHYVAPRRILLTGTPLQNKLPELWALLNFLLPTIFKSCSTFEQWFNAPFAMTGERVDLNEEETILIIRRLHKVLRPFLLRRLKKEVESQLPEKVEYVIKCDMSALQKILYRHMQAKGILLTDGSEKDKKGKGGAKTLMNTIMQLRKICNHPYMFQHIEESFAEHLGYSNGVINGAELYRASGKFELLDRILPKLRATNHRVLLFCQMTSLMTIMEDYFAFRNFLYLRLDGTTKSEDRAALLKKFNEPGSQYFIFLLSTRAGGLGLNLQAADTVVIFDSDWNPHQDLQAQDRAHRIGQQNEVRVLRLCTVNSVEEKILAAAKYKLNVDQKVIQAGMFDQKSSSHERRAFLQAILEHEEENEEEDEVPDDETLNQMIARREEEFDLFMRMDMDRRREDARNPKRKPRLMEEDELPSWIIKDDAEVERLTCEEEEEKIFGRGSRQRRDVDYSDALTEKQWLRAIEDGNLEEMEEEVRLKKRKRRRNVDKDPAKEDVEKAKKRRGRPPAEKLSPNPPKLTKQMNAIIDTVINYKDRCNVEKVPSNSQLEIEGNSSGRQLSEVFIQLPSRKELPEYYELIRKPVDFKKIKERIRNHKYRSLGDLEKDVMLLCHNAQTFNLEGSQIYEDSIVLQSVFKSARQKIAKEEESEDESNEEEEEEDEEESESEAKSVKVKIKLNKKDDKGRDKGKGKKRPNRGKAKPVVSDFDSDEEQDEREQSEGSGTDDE
Chain of UniProt P48145 (whole entry, looked up): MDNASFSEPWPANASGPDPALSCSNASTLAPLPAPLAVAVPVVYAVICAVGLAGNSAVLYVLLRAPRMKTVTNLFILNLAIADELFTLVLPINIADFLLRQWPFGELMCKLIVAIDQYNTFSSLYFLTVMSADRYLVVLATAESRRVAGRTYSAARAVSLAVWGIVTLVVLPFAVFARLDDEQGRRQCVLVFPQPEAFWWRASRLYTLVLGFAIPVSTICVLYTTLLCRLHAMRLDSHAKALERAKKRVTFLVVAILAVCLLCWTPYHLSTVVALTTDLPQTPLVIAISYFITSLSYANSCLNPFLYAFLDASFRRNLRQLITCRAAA
Chain of UniProt Q9SZU7 (whole entry, unmodified, looked up): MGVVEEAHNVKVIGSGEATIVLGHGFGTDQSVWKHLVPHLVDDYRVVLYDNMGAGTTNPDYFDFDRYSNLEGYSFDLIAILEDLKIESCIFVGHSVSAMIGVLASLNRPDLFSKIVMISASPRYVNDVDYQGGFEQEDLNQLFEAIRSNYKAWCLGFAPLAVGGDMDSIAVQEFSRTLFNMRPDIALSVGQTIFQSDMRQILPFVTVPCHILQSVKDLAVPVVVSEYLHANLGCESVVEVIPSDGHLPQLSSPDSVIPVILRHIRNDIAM
Chain of UniProt P08172 (whole entry, looked up): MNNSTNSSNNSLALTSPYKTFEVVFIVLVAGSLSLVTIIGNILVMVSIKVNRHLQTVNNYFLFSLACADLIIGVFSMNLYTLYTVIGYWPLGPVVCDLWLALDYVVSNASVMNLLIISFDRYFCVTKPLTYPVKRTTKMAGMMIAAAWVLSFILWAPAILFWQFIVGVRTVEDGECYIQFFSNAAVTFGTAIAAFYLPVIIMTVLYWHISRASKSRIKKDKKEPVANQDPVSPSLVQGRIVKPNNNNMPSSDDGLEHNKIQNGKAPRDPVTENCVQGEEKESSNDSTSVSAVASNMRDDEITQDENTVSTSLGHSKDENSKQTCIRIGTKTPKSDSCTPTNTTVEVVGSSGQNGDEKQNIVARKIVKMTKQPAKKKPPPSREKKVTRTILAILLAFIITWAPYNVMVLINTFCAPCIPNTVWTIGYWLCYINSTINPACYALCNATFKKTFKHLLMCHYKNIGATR
Chain of UniProt Q8TDU6 (whole entry, looked up): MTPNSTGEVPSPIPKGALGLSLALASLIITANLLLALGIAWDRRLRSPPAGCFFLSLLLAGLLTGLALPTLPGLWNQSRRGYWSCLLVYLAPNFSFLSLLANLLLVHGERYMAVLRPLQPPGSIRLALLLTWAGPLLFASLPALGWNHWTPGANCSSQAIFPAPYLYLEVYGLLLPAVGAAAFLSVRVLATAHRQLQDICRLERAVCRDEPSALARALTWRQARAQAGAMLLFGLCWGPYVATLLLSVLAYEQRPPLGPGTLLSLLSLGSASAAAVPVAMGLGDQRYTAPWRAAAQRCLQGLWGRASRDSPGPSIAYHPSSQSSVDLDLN
Chain of UniProt P49674 (whole entry, looked up): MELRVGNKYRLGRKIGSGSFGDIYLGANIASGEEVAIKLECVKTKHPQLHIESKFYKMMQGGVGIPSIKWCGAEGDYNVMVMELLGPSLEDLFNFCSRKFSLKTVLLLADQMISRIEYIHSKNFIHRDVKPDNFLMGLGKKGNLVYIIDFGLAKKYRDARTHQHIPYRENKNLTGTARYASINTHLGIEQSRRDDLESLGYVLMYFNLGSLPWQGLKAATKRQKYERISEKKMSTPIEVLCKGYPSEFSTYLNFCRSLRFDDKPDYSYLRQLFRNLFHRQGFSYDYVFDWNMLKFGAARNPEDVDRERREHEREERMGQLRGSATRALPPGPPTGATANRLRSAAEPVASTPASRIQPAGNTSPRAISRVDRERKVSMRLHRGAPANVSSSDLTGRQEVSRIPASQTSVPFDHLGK

Structure (SMILES)	tested on	test	system	setting	scale	endpoint	value
Cc1nn(-c2cccc(N)c2)c(=O)c2cnc(Nc3ccc(N4CCNCC4)cc3)nc12	Casein kinase I isoform epsilon (CSNK1E, Homo sapiens, UniProt P49674)	SelectScreen kinase				IC50	> 10 µM
O=C(Nc1cccnc1)c1ccccc1NC(=O)C(C(F)(F)F)C(F)(F)F	Rhomboid protease AarA	enzyme activity, inhibitor, fluorescence				IC50	6 µM
Nc1ncnc2c1c(-c1ccc(Oc3ccccc3)cc1)nn2C1CCCC1	Proto-oncogene tyrosine-protein kinase Src (SRC, Gallus gallus, UniProt P00523, K249E/P250E/Y527F)	enzyme activity, inhibitor				Ki	0.11 µM
Cc1c(Cc2cccc(OC(C)C(=O)O)c2)c2ccc(C(=O)NC(C)c3cccc(C(C)(C)C)c3)cc2n1C (mixture of isomers)	PPARG	ligand displacement, TR-FRET				IC50	3.28 µM
Cc1ccc(S(=O)(=O)N2CC(C)C2=O)cc1 (centres unmarked)	Rhomboid protease AarA	enzyme activity, inhibitor, fluorescence				IC50	180 µM
Cc1c(Cc2ccc(Cl)c(O[C@@H](C)C(=O)O)c2)c2ccc(C(=O)N[C@@H](C)c3ccc(C(C)(C)C)cc3)cc2n1CC1CC1	PPARG	ligand displacement, TR-FRET				IC50	0.00035 µM
CC1C(=O)N(S(=O)(=O)c2ccccc2)C1c1ccccc1 (centres unmarked)	Rhomboid protease AarA	enzyme activity, inhibitor, fluorescence				IC50	224 µM
C=CCn1c(=O)c2ccccc2n2c(SCC(=O)Nc3ccc(NC(C)=O)cc3)nnc12	Muscarinic acetylcholine receptor M2 (CHRM2, Homo sapiens, UniProt P08172)	binding affinity, allosteric modulator				Kb	5.9 ± 1 µM
CC(CCC(=O)NCC(=O)O)C1CCC2C3C(O)CC4CC(OS(=O)(=O)O)CCC4(C)C3CCC12C (centres unmarked)	G-protein coupled receptor 39 (Mus musculus, UniProt Q5U431)	calcium signal, agonist, fluorescence				EC50	> 200 µM
Nc1nnc(-c2ccccc2O)cc1N1CC2CCC(C1)N2c1ccnc(C#CCCN2CCCCCC2)c1	SWI/SNF-related matrix-associated actin-dependent regulator of chromatin subfamily A member 2 (SMARCA2, Homo sapiens, UniProt P51531)	degrader, immunofluorescence	SW1573			DC50	0.00025 µM
CC(CCC(=O)NCCS(=O)(=O)O)C1CCC2C3CCC4CC(OS(=O)(=O)O)CCC4(C)C3CC(O)C12C (centres unmarked)	G-protein coupled bile acid receptor 1 (GPBAR1, Homo sapiens, UniProt Q8TDU6)	agonist				EC50	> 200 µM
Cc1c(Cc2ccc(OC(C)C(=O)O)cc2)c2ccc(C(=O)NC(C)c3cccc(C4CC4)c3)cc2n1C (mixture of isomers)	PPARG	ligand displacement, TR-FRET				IC50	0.038 µM
O=C(NCCc1ccccc1)C(C(F)(F)F)C(F)(F)F	Rhomboid protease AarA	enzyme activity, inhibitor, fluorescence				IC50	15 µM
Cc1c(Cc2cccc(OC(C)(C)C(=O)O)c2)c2ccc(C(=O)N[C@@H](C)c3cccc(OC(F)(F)F)c3)cc2n1C	PPARG	ligand displacement, TR-FRET				IC50	0.001 µM
Cc1cccc2c1N(C(=O)n1ccnn1)CC2	KAI2 (Arabidopsis thaliana, UniProt Q9SZU7, S95A)	ITC		S95A mutant, mean		Kd	2210 µM
Cc1c(Cc2ccc(OC(C)(C)C(=O)O)cc2)c2ccc(C(=O)N[C@@H](C)c3cccc(C(C)C)c3)cc2n1C	PPARG	ligand displacement, TR-FRET				IC50	0.056 µM
O=C1CC(c2ccccc2)N1S(=O)(=O)c1ccc(Cl)cc1 (centres unmarked)	Rhomboid protease AarA	enzyme activity, inhibitor, fluorescence				IC50	35 µM
CC(=O)N[C@@H]1[C@@H](O[C@@H]2O[C@H](C(=O)O)[C@@H](O[C@@H]3O[C@H](COS(=O)(=O)O)[C@@H](OS(=O)(=O)O)[C@H](O[C@@H]4O[C@H](C(=O)O)[C@@H](OS(=O)(=O)O)[C@H](OS(=O)(=O)O)[C@H]4OS(=O)(=O)O)[C@H]3NC(C)=O)[C@H](OS(=O)(=O)O)[C@H]2OS(=O)(=O)O)[C@H](OS(=O)(=O)O)[C@@H](COS(=O)(=O)O)O[C@H]1N=[N+]=[N-]	Interleukin-8 (CXCL8, Homo sapiens, UniProt P10145)	probe displacement, FP competition		protein 800 nM, together with: TAMRA-labelled sHA tetramer probe		EC50	24.1 ± 2.4 µM
Cc1ccc(C2CC(=O)N2S(=O)(=O)c2cccc(Cl)c2)cc1 (centres unmarked)	Rhomboid protease AarA	enzyme activity, inhibitor, fluorescence				IC50	21 µM
COC1CN([C@H]2CC[C@H]([C@@]3(C)Oc4c(Cl)cc(C(=O)NCc5c(SC)cc(C)[nH]c5=O)c(C)c4O3)CC2)C1		RNA-seq, measured: PDGFRL	human, whole blood	dose not given, 24 h	relative to: pretreatment baseline	log2 fold change	4.88
Cc1c(Cc2cccc(OC(C)(C)C(=O)O)c2)c2ccc(C(=O)N[C@@H](C)c3ccc(C(F)(F)F)cc3)cc2n1C	PPARG	ligand displacement, TR-FRET				IC50	0.001 µM
O=C(NCc1ccccc1)c1ccccc1NC(=O)C(C(F)(F)F)C(F)(F)F	Rhomboid protease AarA	enzyme activity, inhibitor, fluorescence				IC50	4.7 µM
Cc1c(Cc2cccc(OC(C)(C)C(=O)O)c2)c2ccc(C(=O)N[C@@H](C)c3cc(C(C)(C)C)ccc3F)cc2n1CC(C)C	PPARG	ligand displacement, TR-FRET				IC50	0.00194 µM
CC(C)C[C@H](NC(=O)[C@H](CC(C)C)NC(=O)CNC(=O)[C@H](C)NC(=O)[C@H](C)NC(=O)[C@@H](CCCNC(=N)N)NC(=O)CNC(=O)CCCCNC(=O)CCCCNC(=O)CCCCNC(=O)[C@H](CCCCN)NC(=O)[C@H](Cc1ccc(O)cc1)NC(=O)[C@@H](N)Cc1c[nH]c2ccccc12)C(N)=O	Neuropeptides B/W receptor type 1 (NPBWR1, Homo sapiens, UniProt P48145)	calcium signal, agonist				EC50	> 10 µM
Cc1c(Cc2ccc(OC(C)C(=O)O)cc2)c2ccc(C(=O)N[C@@H](C)c3cccc(C(C)(C)C)c3)cc2n1C (some centres unmarked)	Peroxisome proliferator-activated receptor gamma, ligand-binding domain (PPARG, Homo sapiens, UniProt P37231)	reporter gene, luciferase reporter	HEK293T, Gal4-PPARγ LBD			IC50	7.87 µM
Cc1ccc(S(=O)(=O)N2CC(NC(=O)c3ccc(F)cc3)C2=O)cc1 (centres unmarked)	Rhomboid protease AarA	enzyme activity, inhibitor, fluorescence				IC50	71 µM

Excerpt of the above:
Structure (SMILES)	tested on	test	system	setting	scale	endpoint	value
Cc1c(Cc2cccc(OC(C)C(=O)O)c2)c2ccc(C(=O)NC(C)c3cccc(C(C)(C)C)c3)cc2n1C (mixture of isomers)	PPARG	ligand displacement, TR-FRET				IC50	3.28 µM
Cc1ccc(C2CC(=O)N2S(=O)(=O)c2cccc(Cl)c2)cc1 (centres unmarked)	Rhomboid protease AarA	enzyme activity, inhibitor, fluorescence				IC50	21 µM
Cc1ccc(S(=O)(=O)N2CC(C)C2=O)cc1 (centres unmarked)	Rhomboid protease AarA	enzyme activity, inhibitor, fluorescence				IC50	180 µM
